Measurements from different studies.
Every numbered part comes from another study and shows a few of its results, in no order.
Chain of UniProt P08588 (whole entry, looked up): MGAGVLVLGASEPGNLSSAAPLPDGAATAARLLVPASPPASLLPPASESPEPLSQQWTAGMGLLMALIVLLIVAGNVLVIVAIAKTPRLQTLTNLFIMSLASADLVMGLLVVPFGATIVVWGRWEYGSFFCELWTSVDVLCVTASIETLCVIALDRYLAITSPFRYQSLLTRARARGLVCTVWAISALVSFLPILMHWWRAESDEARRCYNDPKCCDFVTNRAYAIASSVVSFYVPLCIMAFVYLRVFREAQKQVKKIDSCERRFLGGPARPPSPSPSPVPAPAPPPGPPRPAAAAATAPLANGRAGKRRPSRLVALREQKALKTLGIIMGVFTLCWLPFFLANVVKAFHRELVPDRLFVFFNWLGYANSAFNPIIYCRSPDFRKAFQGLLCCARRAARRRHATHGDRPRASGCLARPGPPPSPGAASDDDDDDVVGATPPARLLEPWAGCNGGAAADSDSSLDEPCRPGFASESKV

Block 1 — technique: RNA Bind-n-Seq; molecule type: RNA; medium: in vitro; concentration: 365 nM; relative to: no-protein control; reading: higher = stronger binding
Target: RNA binding protein fox-1 homolog 2, RRM domain, GST-SBP tag (RBFOX2, Homo sapiens, UniProt O43251-10, residues 100-194)
Notes: natural RNA segment, single round, ends assumed
All sequences stand within: GGGAGUUCUACAGUCCGACGAUC … UGGAAUUCUCGGGUGCCAA
Target sequence (chain): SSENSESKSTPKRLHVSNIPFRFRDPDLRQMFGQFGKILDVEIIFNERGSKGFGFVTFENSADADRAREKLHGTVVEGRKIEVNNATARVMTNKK
Strand | RBNS enrichment (R)
UUGCAUGAUGAGAGAGGAAGGGUUUGCCAUAGAGAGCUGAAAUGGGGAUUUAGACUGAUGUGUGCAUUGGCUGAGCUGAACCUUGGUCUCUUGAUGUCCCUGGAGAGCUG | 15.9
UAGUGUAAGGCUGCAUUGUGGGUUUGGGGGAAAUGUAAAUAAUUUUCUGUGUAAAACAAAUUCAUAGGAUCUGAUUUGCUCAGAGUAUUAUUCAAGAAUGUAUUAAUAAG | 1.52
CUUAGCAGGAACCUUUGCUAGCCACCUAGUGAAUGCCUGUAACAGGGUCUCUGAGCUGACUCUGUAUUAAGGGAAAUUCUGCACACCACAGGUGAGGCUUUUUUCAGAUC | 0.242
CUCUAGUCAUCCAGAAACCCACUCCCUUCUGAAGCCCCUCCUUGGGCCGGGUUGUAUCAGGAGGAUUCAACCCCGCUAACAUGUGGGGUGCCCUCUGUAGGCCUUCACAC | 0.34
CCUCAGGAGCGUCAGGAUCAUUUUCAACUCUGGUUAGGCCUCCUACCUGGGGAGGCCAGGUCACUGCACUGGGAGGUCCUGGCUGCUGCGAAGCUGGAGGAGGACUGCGU | 0.268
UUAAACUCAUGAAGUAUGGGUUCAGUGGAAAUGUUUGGAACUCUGAAGGAUUUAGACAAGGUUUUGAAAAGGAUAAUCAUGGGUUAGAAGGAAGUGUUUGAAAGUCACUU | 1.63
UGGUGAGGCAAGAAGGAUAUACAUUAUUUUAGAAUCAUUUACUAUUUAAAUGAGACAAUCAUAUUAUUUUAGAAUCAUUUAUUUUAAAUGAGACAAUCAUUUUAAGUUUU | 0.766
CAGACUUGAGUUGCCUGGCUACAUUGCUGAAAGCUUUGUAGCACUUGAAAAUUAAAUAUUGAUUUGUUUCACUAUUGAUGGGAAGAAGGGGAAUAAAGACUUGCAUAGGU | 0.301

Block 2 — technique: competition protein-binding microarray; molecule type: double-stranded DNA, one strand shown; medium: in vitro; concentration: 2 µM; with: Pho4 competitor, 0.05 µM; reading: higher = stronger binding; all sequences stand within: … GTCTTGATTCGCTTGACGCTGCTG
Target: Centromere-binding protein 1, full length, His-tagged (CBF1, Saccharomyces cerevisiae, UniProt P17106, residues 1-351)
Chain of UniProt P17106 (whole entry, looked up): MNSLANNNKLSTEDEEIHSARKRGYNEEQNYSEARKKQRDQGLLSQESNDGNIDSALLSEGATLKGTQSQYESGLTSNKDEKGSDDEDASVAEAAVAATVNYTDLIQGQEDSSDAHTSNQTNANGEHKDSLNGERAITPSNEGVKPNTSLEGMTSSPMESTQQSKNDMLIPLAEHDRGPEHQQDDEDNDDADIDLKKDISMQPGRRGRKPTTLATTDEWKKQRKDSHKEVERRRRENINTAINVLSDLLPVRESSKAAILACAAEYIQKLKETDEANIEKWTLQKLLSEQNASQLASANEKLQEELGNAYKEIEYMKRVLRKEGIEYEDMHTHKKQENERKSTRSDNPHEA
Notes: whole 60-bp probe, lowest competitor level
Strand | fluorescence intensity
AAAAAAATAAATGAACACATGGAAATAAGTCAAGGA | 136 a.u.
ACCTGCACCGCCACCCCTTCCAGATCTATTTAAAAC | 75.9 a.u.
GATGGAATTACCCATCACGCTCCTCTCTTATGACTA | 183 a.u.
CTGTGAGACCAGTTAAAGACCTCTCTCAAGAAAAAT | 66.8 a.u.
ATTAGCTAGAATAATCGCGTGTGTTGTCTTGGCTGG | 82.7 a.u.
TATATAGTAGATCAACTCGTGCTTTGCTGGCTATAA | 107 a.u.
AGTCTCATCTTCTTTCCCGTGCCGACGGGTTTAGTA | 68.2 a.u.
GTCTTGTCTCATTGTCACGATACTTTCCCCACTTCA | 232 a.u.

Other studies, line by line
Structure (SMILES) | tested on | test | setting | quantity | result
CC(C)c1ccc(C(=O)N2CC(CNC(=O)C3CCOCC3)C3(C2)CN(c2ccccc2)C3)cc1 (stereo not drawn) | ADRB1 (Homo sapiens, UniProt P08588) | antagonist |  | IC50 | ≥ 100 µM
N#CC1(c2ccccn2)CCN(Cc2cc(C(=O)N3CCCC3)c(=O)n3ccccc23)CC1 | U2OS | Hoechst high-content imaging | 10-fold recommended concentration, 24 h | cells with bright nuclei | 40%

Repeated from above (other studies, line by line):
Structure (SMILES) | tested on | test | setting | quantity | result
CC(C)c1ccc(C(=O)N2CC(CNC(=O)C3CCOCC3)C3(C2)CN(c2ccccc2)C3)cc1 (stereo not drawn) | ADRB1 (Homo sapiens, UniProt P08588) | antagonist |  | IC50 | ≥ 100 µM
N#CC1(c2ccccn2)CCN(Cc2cc(C(=O)N3CCCC3)c(=O)n3ccccc23)CC1 | U2OS | Hoechst high-content imaging | 10-fold recommended concentration, 24 h | cells with bright nuclei | 40%
